# Experimental data pooled from the literature.
# Every numbered part comes from another study and shows a few of its results, in no order.

# Study 1 — method: protein-binding microarray; form: double-stranded DNA, one strand shown; medium: in vitro; tested at: not given; direction: higher = stronger binding
# Target: Transcriptional repressor CTCF (CTCF, Homo sapiens, UniProt P49711, residues 1-727, full length assumed)
# Notes: k-mer, scored over probes, only values ≥0.25
# Target sequence (chain): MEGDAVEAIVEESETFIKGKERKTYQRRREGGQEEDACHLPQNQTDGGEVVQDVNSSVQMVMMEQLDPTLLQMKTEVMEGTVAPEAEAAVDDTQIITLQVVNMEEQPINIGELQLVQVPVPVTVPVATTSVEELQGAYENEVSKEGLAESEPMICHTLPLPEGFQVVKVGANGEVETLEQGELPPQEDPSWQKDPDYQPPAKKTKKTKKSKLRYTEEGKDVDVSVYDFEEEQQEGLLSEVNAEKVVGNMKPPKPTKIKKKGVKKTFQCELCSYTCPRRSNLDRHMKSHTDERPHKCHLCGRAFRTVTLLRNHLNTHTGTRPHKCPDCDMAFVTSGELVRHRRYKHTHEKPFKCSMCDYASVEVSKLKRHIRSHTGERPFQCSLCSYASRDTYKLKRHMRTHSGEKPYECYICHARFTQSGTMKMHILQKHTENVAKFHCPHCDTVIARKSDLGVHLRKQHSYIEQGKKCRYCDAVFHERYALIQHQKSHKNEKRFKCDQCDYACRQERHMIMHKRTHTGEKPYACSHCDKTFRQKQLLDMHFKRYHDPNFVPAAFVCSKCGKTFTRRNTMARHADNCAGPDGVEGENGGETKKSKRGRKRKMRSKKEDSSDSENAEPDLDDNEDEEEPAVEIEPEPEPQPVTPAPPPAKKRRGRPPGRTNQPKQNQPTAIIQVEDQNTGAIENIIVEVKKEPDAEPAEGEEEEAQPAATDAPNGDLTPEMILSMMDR
Sequence,E-score
ACGCGCAA,0.32
ATAACAAG,0.306
TAATTCAA,0.257
GCGCAATA,0.377
GCGCCGTA,0.282
ATAAAAAG,0.354
TATGCGAA,0.284
ACGCCCCC,0.39
ATGTATTA,0.341
AGTAATAT,0.294
AAATATTG,0.345
GTATCATA,0.279
ATGCATCA,0.263
CGAAATAA,0.281

# Study 2 — method: RNA Bind-n-Seq; form: RNA; medium: in vitro; tested at: 365 nM; reference: no-protein control; direction: higher = stronger binding
# Target: RNA binding protein fox-1 homolog 2, RRM domain, GST-SBP tag (RBFOX2, Homo sapiens, UniProt O43251-10, residues 100-194)
# Notes: natural RNA segment, single round, ends assumed
# Shared flanks, not repeated: GGGAGUUCUACAGUCCGACGAUC … UGGAAUUCUCGGGUGCCAA
# Target sequence (chain): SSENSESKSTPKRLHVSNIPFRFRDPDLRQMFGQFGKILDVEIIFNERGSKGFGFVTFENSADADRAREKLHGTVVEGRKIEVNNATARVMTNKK
Sequence,RBNS enrichment (R)
CCUUUAAUCCCAGCACUCGGGAGGCAGAGGCAAGCGGAUUUCUGAGUUUGAGGCCAACCUGGUCUACAAAGUGAGUUCCAGGACAGCCAGGGCUACACAGAGAAACUUCG,0.318
UUCUGGCAAGCAGGUGCAGAGUCCCCAGCUCUGGGCUGUGCUGGGGAGUGUCAGGCCUGGAGUCCACAGCCUCACCUGCUGCUGUAGCUGUCAGCUGGACCUGGUGGCUU,0.647
AGUGGUAUGGCUGAACCCAUCGGAUAUUGUUAGCAAAGGAUGCAAAAACAUUAUUGGCAUCUGGAGAUUAUUGCAACGUUCUCCUAACCUGUCACAGAAAGCAGUUGCUU,0.762
AUGAGGCUCGGUCACCACGCUGAGCCUACGUCACUUCCCACUUCCACUGGGGCUUGGUGCCCUGUAGGGGUGGGAGGAUGGCUUAAUGCAGACCUUUACCUGUGAGCCCC,0.165
GAUUUAACUAGUGAGAAUUGUAUUCAAGUGAACUCUGUUUUUCUGAAAAUAAAAAUAUAAACAAUGAAUACAUUUGUAAGGAUCAGCAUUUUAUUUUAUGAGUCAUUUUA,0.899
GGGGAGGCCAGUGUUGUGGGCUUCCUGCUGGGACUGAGAAGGCUCACGAAGGGCAUCCGCAAUGUUGGUUUCACUGAGAGCUGCCUCCUGGUCUCUUCACCACUGUAGUU,0.41
CCAGUGGGGUGAUUUUAACAUGCAAAUGUCUGAGAUUUCUUCACUUGCUUUCUUCCUUACUCUGCCCCACACACGUACACUUUCUGUAAAACUUGAAAAUAGAAAGCAAA,0.408
GGUUUUUGUCGCUUUACAUUGCUUCCUAGUUUACAGCAUGAUGCAAAUGAUUUUCUAACUUAGUGUUAGGAGAAAUUAUUUUCCAUCUUUAACCUCUUAGUUGUCUAAGA,1.92

# Study 3 — method: RNAcompete; form: RNA; medium: in vitro; tested at: 20 nM; notes: 7-mer, probes averaged, single round; reference: mean of 7-mers; direction: higher = stronger binding
# Target: PABPC1L2, full length, GST fusion (mouse, UniProt A0ABA7IW68)
Sequence,7-mer Z-score
AAGAACA,0.602
CAGCACG,0.046
ACAUGUU,-0.255
UGCCGCC,-0.237
ACUCGCC,-0.278
ACUAGGU,-0.19
CUCCUCC,-0.36
GUUGCAG,-0.231
CACACAC,-0.103
UCGGACC,-0.204
CCACGGC,-0.132
CAGGUAG,0.0533
GCAGGUG,0.128
GUGUAAC,-0.122
GAUUGUG,-0.271
GAAGCAU,-0.0989
AACAAUG,1.11
CUCUUCC,-0.595
AAGCCAA,0.229
CAACAGC,-0.204
AGCGCGU,-0.179
AUGUUCA,-0.327
UACUUUC,-0.286
UACUAGA,-0.161
GUCCCUA,-0.373

# Study 4 — method: protein binding microarray; form: double-stranded DNA, one strand shown; medium: in vitro; tested at: not given; reference: not given; direction: higher = stronger binding
# Target: Histone acetyltransferase KAT6A, winged helix 2, GST fusion (KAT6A, Homo sapiens, UniProt Q92794, residues 85-181)
# Notes: 8-mer, flanks averaged, mean of 2 arrays, mostly near background
# Target sequence (chain): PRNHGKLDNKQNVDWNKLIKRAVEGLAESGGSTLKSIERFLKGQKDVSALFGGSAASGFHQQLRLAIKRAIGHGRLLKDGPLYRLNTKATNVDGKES
Sequence,E-score
CTGGCTTA,-0.0955
TACCTAGA,-0.109
AATGTTAT,-0.101
GATCTTCA,0.13
CTTTACGA,-0.117
ATCATAGG,-0.0404
GAACGAGC,0.069
AGCTGGGC,0.0437
ATACTTCG,0.0271
AGGAGAGC,0.0365
ACATATTA,0.117
GTTCGTCA,-0.0439
GGTTTCCA,-0.128
AGAGACCC,-0.00722
GTTATTAA,0.0657
CCAGCGGG,0.298
CGTGGTAC,-0.0377
GAGAGGCA,0.0157
AGATCGAC,0.00611
GTCGTTCA,-0.00741

# Study 5 — method: protein-binding microarray; form: double-stranded DNA, one strand shown; medium: in vitro; tested at: 250 nM; notes: 60-bp whole probe; with: salmon DNA 0.4 mg/ml; reference: random background probes; direction: higher = stronger binding; shared flanks, not repeated: GCCTAGCAC … GTCTTGATTCGCTTGACGCTGCTG
# Target: Interferon regulatory factor 5, full length, phosphomimetic (IRF5, Homo sapiens, UniProt Q13568-2, residues 1-514, K96S/S451D/S453D/S456D/S462D)
Sequence,log fluorescence
TACGGTATCGGGTTTCGGGACGTGCTA,4.41 z-score
GACGGACTAGGGTATCGGGACGTGCTA,-0.0227 z-score
TTAGGACTGGACAATGGGTTAGTGCTA,-0.351 z-score
ACGTCTTCATGTTTTTTTCTGTGCTAG,1.02 z-score
TTAGATTTCAGTTCCGACTAGTGCTAG,2.2 z-score
TTAGGACCGGGTATCGGTTAGTGCTAG,3.85 z-score
GACGATCTCACACTGGAGACGTGCTAG,-0.119 z-score
GACGGTCTCGGAATGGGGACGTGCTAG,0.024 z-score
TCAGTCCTGGCTTTGACACTGTGCTAG,-0.385 z-score
TTTGAACTGAGACTGGATTAGTGCTAG,-0.027 z-score
GACGGTATCCCTCTCCTGACGTGCTAG,-0.0311 z-score
GACGGACTGGACACTTGGGACGTGCTA,-0.503 z-score
TCACTTTGCTTTCTCCCACTGTGCTAG,2.27 z-score
TCACTTCTATAGGCTAGAACTGTGCTA,0.175 z-score
TTAGATTTCAGTATAGATTAGTGCTAG,2.36 z-score
TTAGGACTGGGACTGGGTTGGTGCTAG,-0.478 z-score
ATGTTCACTGTGTACCGTCTGTGCTAG,-0.138 z-score
TTTAAAGAACCCACTATCTTGTGCTAG,0.198 z-score
TACGAACTGAGTATCGAGACGTGCTAG,1.91 z-score

# Some of these lines once more (study 3):
Sequence,7-mer Z-score
CACACAC,-0.103
UCGGACC,-0.204
CCACGGC,-0.132
CAGGUAG,0.0533
GCAGGUG,0.128
GUGUAAC,-0.122
GAUUGUG,-0.271
GAAGCAU,-0.0989
AACAAUG,1.11
CUCUUCC,-0.595
AAGCCAA,0.229
CAACAGC,-0.204
AGCGCGU,-0.179
AUGUUCA,-0.327
